Assay results pooled from the literature.
Every numbered part comes from another study and shows a few of its results, in no order. Values joined by “and” are separate records of one study, mostly repeats; a detail may differ.

Sample 1
Target: Alpha-2A adrenergic receptor (ADRA2A, Homo sapiens, UniProt P08913)
Sequence of UniProt P08913 (whole entry, looked up): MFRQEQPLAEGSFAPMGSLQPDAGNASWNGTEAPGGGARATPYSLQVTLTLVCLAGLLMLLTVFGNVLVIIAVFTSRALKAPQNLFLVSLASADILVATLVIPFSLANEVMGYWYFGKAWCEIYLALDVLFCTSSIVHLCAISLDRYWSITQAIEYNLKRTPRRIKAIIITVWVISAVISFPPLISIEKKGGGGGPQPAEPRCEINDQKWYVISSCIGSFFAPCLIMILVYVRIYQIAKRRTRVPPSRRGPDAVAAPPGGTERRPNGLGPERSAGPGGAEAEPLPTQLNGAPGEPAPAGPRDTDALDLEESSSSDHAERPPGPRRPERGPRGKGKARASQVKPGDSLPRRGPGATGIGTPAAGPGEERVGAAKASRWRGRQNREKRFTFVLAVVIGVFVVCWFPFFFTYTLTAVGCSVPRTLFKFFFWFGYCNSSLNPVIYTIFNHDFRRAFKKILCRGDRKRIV
Observed: ligand displacement
Tested at: 10 µM
Endpoint: inhibition
COc1cccc(NC(=O)c2nc3scc(CN(C)Cc4ccccc4)c3c(=O)[nH]2)c1: 27.3%
Nc1nc(NCc2ccccc2)nc(-c2ccccc2CO)n1: 24.4%
O=S(=O)(NC1CCC(c2cc(F)ccc2F)(S(=O)(=O)c2ccc(Cl)cc2)CC1)C(F)(F)F (stereo not drawn): 8.45%
Cc1ncc(-c2cc(Cl)ccc2F)cc1-n1c(=O)n(CC(N)=O)c2ccccc21: 3.1%
Nc1nc(NCc2ccccc2)nc(-c2cccc(CO)c2)n1: 7.24%

Sample 2
Structure (SMILES): CC(C)n1cnc(-c2ccc(F)cc2)c1-c1ncc(C(=O)Nc2ccc(N3CCN(C)CC3)cc2)[nH]1
Method: phase 2a clinical trial
Species: patients with idiopathic pulmonary fibrosis
Endpoint: patients with treatment-emergent adverse events
item: electrocardiogram QT prolonged; 60 mg once daily, Grade 2: 0%
item: gastro-oesophageal reflux disease; dose not given, Grade 5, all drug arms total: 0%
item: benign prostatic hyperplasia; 30 mg once daily, Grade 2, maximum intensity: 0%
item: electrocardiogram T wave abnormal; 60 mg once daily, Grade 2: 0%

Other studies, line by line
CC[C@H](C)[C@H](N)C1=N[C@H](C(=O)N[C@@H](CC(C)C)C(=O)N[C@H](CCC(=O)O)C(=O)N[C@H](C(=O)N[C@H]2CCCCNC(=O)[C@H](CC(N)=O)NC(=O)[C@@H](CC(=O)O)NC(=O)[C@H](Cc3cnc[nH]3)NC(=O)[C@@H](Cc3ccccc3)NC(=O)[C@H]([C@@H](C)CC)NC(=O)[C@@H](CCCN)NC2=O)[C@@H](C)CC)CS1
infection rate (Plasmodium berghei; liver stage infection, inhibitor; Huh-7; 10 µM, 24 h, GFP-expressing sporozoites; reference: control): 95.4%

COc1ccc(-c2c(Nc3ccccn3)[nH]c3c(C4=CCCCC4)c(-c4ccccc4)nn3c2=O)cc1
Cmax, dose-normalised (LC-MS/MS; human, plasma; oral, 50 mg once daily): 32.6 ng/mL/mg and 34.6 ng/mL/mg and 35.6 ng/mL/mg

CC[C@@H](C)c1nc2cc(Nc3ccnc4ccc(S(=O)(=O)C(C)C)cc34)ccc2s1
EC50 (HT-29; necroptosis; together with: TNF-α, Smac mimetic, z-VAD): 1.97 µM

Some of these lines once more (sample 1):
Cc1ncc(-c2cc(Cl)ccc2F)cc1-n1c(=O)n(CC(N)=O)c2ccccc21: 3.1%
